Measured values pooled from the literature.
Every numbered part comes from another study and shows a few of its results, in no order.

Set 1 — method: protein binding microarray; form: double-stranded DNA, one strand shown; medium: in vitro; concentration: not given; reference: not given; reading: higher = stronger binding
Target: Histone acetyltransferase KAT6A, winged helix 1, GST fusion (KAT6A, Homo sapiens, UniProt Q92794, residues 1-85)
Setting: 8-mer, flanks averaged, mean of 2 arrays, mostly near background
Construct (chain): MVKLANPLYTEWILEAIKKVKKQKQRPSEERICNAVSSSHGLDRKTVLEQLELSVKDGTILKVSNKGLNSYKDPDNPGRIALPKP
Strand	E-score
TAGCCCTA	-0.0793
CGTGATCC	-0.00732
CCATTAGA	-0.175
AGGGTCAA	-0.15
ACAGCGAT	-0.0119
TCAAACCA	-0.0536
AATGAAAG	-0.0906
AGAGCTAA	-0.241
CGCGATAC	0.334
CCCCCCCG	0.078
AGGCTTGG	-0.111
GCCGAAGC	0.265
GGCGGGAA	0.381
TCCAGACA	-0.268
GCTATCAC	-0.00033
AGTCGCCG	0.373
ACCAGCTA	-0.309
CAGTCGGG	0.0868
ATCCCTTC	-0.000685
ATCGTGGG	-0.085
AGCGCCAG	0.144
ATGCGAGG	0.00153
CAGAGCGG	0.284
GGGACTGA	-0.0279
CGGTTAAC	0.201

Set 2 — method: RNA Bind-n-Seq; form: RNA; medium: in vitro; concentration: 365 nM; reference: no-protein control; reading: higher = stronger binding
Target: RNA binding protein fox-1 homolog 2, RRM domain, GST-SBP tag (RBFOX2, Homo sapiens, UniProt O43251-10, residues 100-194)
Setting: natural RNA segment, single round, ends assumed
Constant ends, left off below: GGGAGUUCUACAGUCCGACGAUC … UGGAAUUCUCGGGUGCCAA
Target sequence (chain): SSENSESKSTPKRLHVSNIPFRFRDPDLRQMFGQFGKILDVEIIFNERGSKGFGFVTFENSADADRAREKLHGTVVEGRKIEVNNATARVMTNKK
Strand	RBNS enrichment (R)
AUUGAUGUGAGUUAUUAUGUCAAAAAAACUGAUCUAUUAAAGAAGUAAUUGGCCUUUCUGAGCUGAUUUUUCCAUCUUUUGUAAUUAUCUUUAUUAAAAAAUUGUACUUG	0.401
CUAGGUAGAAUUUUUAAGUCUAACGUGAACUUUAGCUUUAUCAGACAUUUUUGUUACUAGUGCCUAGAACAUAGUAGGUGCUCAAUAAAUACACAUGGAGUAAUUGAAUG	0.292
CCUUCUUUGAAGAGAAUCCCAAAAGUUAGUUCAUCUUAAAGUGCAAUAUUGUUUAAUCUUAAAACUGGGCAACUUUGGAAGAACUUUUAACAGAAGCCUCAAUGAUGAUC	0.254
GUGGCCCAGCAGCAUGGCCUGCAUCUGGAAGGACACAGGUUGCCAGAGCCCCUGGCACAACUCUAGCAUAUCUGUGAGCAGCUGUUCCCUGUAGCCACUGCCCAGCACCU	0.733
UCACUGUUGUUUGUAUUUAUGAAAUUCUGAAAUUAUGGGGAAUCAGCGUAAUGAUUAAGUUAUUCAUCACCAGGCUGUAAGCAAUAUCUUGAGUUUGUAGCUUAGAAUUG	0.399
GAUGGUAGGAGGAGUCACUAAUGUUUCAAUCUCUAUUUCUGUAAUCUUGGGCAAUAAUGCAUAGGAGUUCUUGAUACCCCUUCAUUGAUUACUGUGUAUCAGUUCUUUGU	0.381
UCUCAGGCUGGGGUGGACUCAGAUGCCAGGAAAGGGACAGCCUCCCAUUGUCAGGCAGAAGCUGCCCAAAGCCUGGAGAAGGACUUGUUUGCCCUCUUUCCCCCAGGAGG	0.248
AAUGUCAGCAAUUAUCUGUACAUGGUAAGAACGAAAAAUACCUUCAUUGAAAUAAAGCUACAGCACAAGACAACUUACAGAUUGUGAAACAGCGAGAAUGAAGAGCUACA	0.352
CCAGCAUACUGCCUCUCUGUCUCCCAAAUCAGAGCUCAAGCCAAAUUCUUCUAUCCUCUUUCCCUCUUGCAUUAACCUUUGCUGAUCCUCAGGGACCACUCCCCCAGCAC	1.35
CUGCCGGUGGCUUCUCGCUGCGCAGCCUCCAGGGCCCGAGGUGAUCCCGGUGGUGGGAUCCACGCUGGGCCUAGGAUGGGACGUUUUUCUUCUUGGGCCCGGUCCACAGG	0.185
CUCCCACACCCAAGAGGAGUGGUGGGUUUGAGUUUGGAGGUUUUACUCAAGUGACAGCUUCAGCAUUUCUUGGUAGCACCUACAGCAUUCUGAUUACAUGCAGGUUCCUG	0.385
AAAUAUGCUAGGUGGUCUUCAAGACCUUUUUGAACCUACAGAUUCUAAACCUUAGAGGAAGCCAGAAUAUGUGAUCAUACCAGGUGAGGAAAGUUAGGAGAUAUUCAUCU	0.395

Set 3 — method: RNA Bind-n-Seq; form: RNA; medium: in vitro; concentration: not given; reference: input RNA pool; reading: higher = stronger binding
Target: RING finger protein unkempt homolog, zinc fingers 1-6, GST-SBP tag (UNK, Homo sapiens, UniProt Q9C0B0, residues 30-357)
Setting: RNA with constant flanks, human and mouse sites, ends assumed
Constant ends, left off below: GGGAGUUCUACAGUCCGACGAUC … CAACAGAGGAUUGAGCAUCA
Residues (chain): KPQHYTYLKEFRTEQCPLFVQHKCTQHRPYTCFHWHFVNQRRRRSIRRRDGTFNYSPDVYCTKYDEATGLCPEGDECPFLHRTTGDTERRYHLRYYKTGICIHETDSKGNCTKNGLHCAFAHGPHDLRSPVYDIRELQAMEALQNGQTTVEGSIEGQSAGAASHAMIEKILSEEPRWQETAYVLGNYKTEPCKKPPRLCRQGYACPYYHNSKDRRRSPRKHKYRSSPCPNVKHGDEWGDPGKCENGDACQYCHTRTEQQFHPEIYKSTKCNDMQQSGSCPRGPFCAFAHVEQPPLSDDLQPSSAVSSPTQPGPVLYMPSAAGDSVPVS
Strand	bound/input enrichment
CAAGUAUUUUAAUUUAAGUUCAGUGAACUUUUUUGUAGCUGGGUUAAAUCUUUUUAUUUUUAGUAUGGCCUUAUGGCAAAGAACACUGUAUUAUUUUAAUAAUCACACGAUUGUGACGGA	6.6 ratio
CUUCUAAGUCGUGUCACUCUUCUAGAAACGGAGAUGCUGUUGUCCAAAAAGAGUGAAUCUGUAGAGCGUAAUGUGGCAAGUCAAGACUGUGAGUCAAUUAGUGAUGUGGACUUUGUACCC	1.16 ratio
AGCAGCUCCAGUCAGUCUCAGUCAUCUUACAUCAUUCGGAACCCACAGCAGAGGCGCAUCAGCCAGUCACAGCCCGUCAGAGGCCGAGACGAGGAGCAGGAUGAUAUUGUGUCAGCAGAC	0.073 ratio
CUGACCCAUAAUAAUGGAAAGUUUAACAGUGACUCACAUUCUCCUAAAGUUUCCAGCCAGAAUAGGACACGCUUAUUUGGUCAUUUUCCCGGGCCAGAGUUCUUGGACAUAGAGAAAACU	0.464 ratio
UACAAGGUCCAGGAAAAUAUAUAGACUACAGAUGUCCCAGGCUUUGAGUAAGCGCUGAUUUUAGGAGAUGGGUAAUUAACCCAAGUUCUCCAACAUUUUUCACAUAAGAAAUGUGUUUUG	0.188 ratio
GGGCUGCAGACAUGUAGGAUGGAGUGAGGUGUGUUUCCUGUCACCCUCCACUCCCCAGCUUUAGUUUCAUAAAUGUAGUUUUAGAUCCCUCACUGCUUGGUUCCCAAAGCCUUAUUACUG	21.8 ratio
UUUUUUGGGGGUGGAUUUCCUUCAGGUAGUGUACAUUCUUUUUCAAAUGGAAGAGCUGGUUAUAGCCAACAACAUCAGCAUCGACAUAGUGGACAUGAAAGAGAAGAGGAAAGAGGAGAU	1.59 ratio
UUGAUUUUUAUUUCUGUGGGGAACUUUAUUUUUCUUGGCAAAUAACUAAAGUUCUUGUCCAUGUAAUUUCUGUGGUCUCUAUUCAGCUUGGGUUUCAUGUUUUAAAAUAAACAAUUUUAA	0.293 ratio
CUCUAGAUUCUGUAUCUAGAUCACCAUGGCGACUGGACAGAAGUUGAUGAGAGCUGUUAGAGUUUUUGAAUUUGGUGGGCCAGAAGUCCUGAAAUUGCGAUCAGAUAUUGCAGUACCGAU	1.57 ratio
UCUGCUAAAGCAGCUAUCGACUGGUUUGAUGGUAAAGAAUUCUCUGGGAAUCCUAUUAAAGUUUCAUUUGCUACCCGCCGAGCUGACUUCAAUCGGGGUGGUGGAAAUGGUCGCGGAGGC	0.163 ratio
CUGAUUGUGACAUUUGUGCUGUUGCUUCCUGGACUAAACCAACAUGGGAUCAUUCUGAAGUACAUUGGAAUGGCCAAAAGGGAGAUAAACAAACUUCUCAAGCAAAAAGAAAAGAAAAAU	0.159 ratio

Set 4 — method: RNA Bind-n-Seq; form: RNA; medium: in vitro; concentration: 200 nM; setting: whole 134-nt RNA, ends assumed; added: 150 mM LiCl; reference: input library; reading: higher = stronger binding; each molecule: 7-deaza-guanosine replaces G
Target: Ras GTPase-activating protein-binding protein 1, full length (G3BP1, Homo sapiens, UniProt Q13283)
UniProt Q13283, sequence (whole entry, looked up): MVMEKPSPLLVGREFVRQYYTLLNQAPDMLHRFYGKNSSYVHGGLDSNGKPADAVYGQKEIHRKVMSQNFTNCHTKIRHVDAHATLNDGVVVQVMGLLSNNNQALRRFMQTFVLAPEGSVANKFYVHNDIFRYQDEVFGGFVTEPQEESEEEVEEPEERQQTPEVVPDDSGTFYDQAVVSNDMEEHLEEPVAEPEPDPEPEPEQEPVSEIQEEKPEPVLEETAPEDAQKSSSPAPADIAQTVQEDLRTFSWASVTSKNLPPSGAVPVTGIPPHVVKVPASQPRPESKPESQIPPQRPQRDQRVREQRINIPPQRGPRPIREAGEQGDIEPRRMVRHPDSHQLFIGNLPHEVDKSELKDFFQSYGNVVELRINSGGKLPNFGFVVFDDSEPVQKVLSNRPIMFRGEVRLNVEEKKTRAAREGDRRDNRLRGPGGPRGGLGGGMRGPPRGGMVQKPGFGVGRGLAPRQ
Constant ends, left off below: GGGAGUUCUACAGUCCGACGAUC … UGGAAUUCUCGGGUGUCAAGG
Strand	log2 enrichment
UGGCCCUGGUGGCAUGCGUGGAGGAAGAGGUGGCCUCAUGGAUCGUGGUGGUCCCGGUGGAAUGUUCAGAGGUGGCCGUGGUGGAGACAG	0.243
UCAAGUCCUGUGCUACACAUCGUAUGUACCGAAUCGGAAAAGGAAAAGGAAAAGGAAAGUAUUAUGUUACGCCGUUCGGAUCUGCACUUC	-0.305
UCCUCAAGUCCUGUGCUACACAUCGUAUGUACCGAAUCGGUGGUUUGGUGGAAAGUAUUAUGUUACGCCGUUCGGAUCUGCACUUCCAGC	0.42
CAAGUCCUGUGCUACACAUCGUAUGUACCGAAUCGGGCCGGGGCCGGGGCCGGGGAAAGUAUUAUGUUACGCCGUUCGGAUCUGCACUUC	-0.193
CAAGUCCUGUGCUACACAUCGUAUGUACCGAAUCGGGUUUGGGGUUUGGUUUGGGAAAGUAUUAUGUUACGCCGUUCGGAUCUGCACUUC	-1.03
CUGUGCUACACAUCGUAUGUACCGAAUCGGCCCCCCCGGGGCCCCCCCGGGGCCCCCCCGGAAAGUAUUAUGUUACGCCGUUCGGAUCUG	-0.214
GUCCUGUGCUACACAUCGUAUGUACCGAAUCGGUUUUUGGGUUUUUGGGUUUUUGGGGAAAGUAUUAUGUUACGCCGUUCGGAUCUGCAC	-0.325
